Experimental data pooled from the literature.
Protocols differ between the studies behind these lines. Numbers after ± are the reported error.

| Molecule | tested on | assay | system | conditions | quantity | result |
| --- | --- | --- | --- | --- | --- | --- |
| N.N.[Cl][Pt][Cl] | NIH3T3 | cell viability, MTT |  | 48 h | IC50 | 24.4 ± 6.18 µM |
| CC(/C=C/C(C)=C/[C@@H]1Cc2nc(cs2)CC[C@@H](N)CC(=O)O[C@@H](C)C/C(C)=C/C=C\C(=O)O1)=C\CN(C)C | primary CLL cells | apoptosis, annexin V/PI staining |  | 24 h, 10% FBS | IC50 | 0.3 ± 0.27 µM |
| N.N.[Cl][Pt][Cl] | PC-3M | cell growth or viability, SRB |  |  | IC50 | 12.9 µM |
| CC[C@H](C)[C@H](NC(=O)[C@@H](N)Cc1ccccc1)C(=O)NCC(=O)N[C@H](C(=O)N[C@@H](CC(C)C)C(=O)N[C@H](C(=O)N1CCC[C@H]1C(=O)N[C@@H](CC(C)C)C(=O)N[C@@H](C)C(=O)N[C@@H](CC(C)C)C(=O)NCC(=O)N[C@@H](C)C(=O)N[C@@H](CC(C)C)C(=O)N[C@H](C(=O)N[C@@H](CCCCN)C(=O)N[C@@H](CC(C)C)C(=O)N[C@@H](Cc1ccccc1)C(=O)N[C@@H](CCCCN)C(N)=O)[C@@H](C)O)[C@@H](C)CC)[C@@H](C)O | CCRF-CEM | cell growth or viability, CCK-8 |  | 24 h | IC50 | 9.31 µM |
| CN1CCC2(CC1)c1ccccc1N(Cc1ccc(C(=O)NO)cc1)C2c1ccccc1F (racemic) | IPF patient basal cells | bronchosphere formation, 3D organoid and MTT |  | 14 days | IC50 | 0.00331 µM |
| S=C([S][Au][PH](c1ccccc1)(c1ccccc1)c1ccccc1)n1cccn1 | PHA-P stimulated human PBMC | cell growth, MTT |  | 3 d | IC50 | 8.55 ± 3.37 µM |
| N.N.[Cl][Pt][Cl] | Fem-X | cell growth or viability |  |  | IC50 | 4.7 µM |
| O=S(=O)([O-])C(F)(F)F.OCc1ccnc(-c2cc(CO)ccn2)c1.[Ru+2].c1cc[cH-]c1.c1ccc(P(c2ccccc2)c2ccccc2)cc1 | HEK293 empty vector control | cell growth, MTT |  | 48 h | IC50 | < 7 µM |
| CC(C)C[C@H](NC(=O)[C@H](CCCCN)NC(=O)[C@H](CCCCN)NC(=O)[C@H](CC(C)C)NC(=O)[C@H](CC(C)C)NC(=O)[C@H](CCCCN)NC(=O)[C@H](CCCCN)NC(=O)[C@H](CC(C)C)NC(=O)[C@H](CC(C)C)NC(=O)[C@H](CCCCN)NC(=O)[C@H](CCCCN)NC(=O)[C@H](CC(C)C)NC(=O)[C@@H](N)CC(C)C)C(=O)N[C@@H](CCC(=O)O)C(N)=O | HCCC9810 | cell growth or viability, CCK-8 |  |  | IC50 | < 6 µM |
| [Cl][Cd][Cl] | Caco-2 monolayers | transepithelial resistance |  | 48 h, repeated dosing | IC50 | 30 µM |
| CC(C)c1ccc2c(c1)CC[C@H]1[C@](C)(CN)CCC[C@]21C | C8161.Cl 9 melanoma | cell viability, MTS |  | 72 h | IC50 | 4.35 ± 0.34 µM |
| CC1(C)OC2=C(C(=O)C(=O)c3ccccc32)[C@@H](n2cc(C[Se]c3ccccc3)nn2)[C@@H]1Br | six human cancer cell lines | MTT |  | 72 h, range over cell lines | IC50 | 0.07 to 2.52 µM |
| C=CC(=O)Nc1ccc(N=Nc2ccc(NC(=O)C[N+](CC)(CC)CC)cc2)cc1 | HEK293 expressing Sh-IR | potassium current, blocker, inside-out patch clamp |  | 500 nm light, trans-enriched | IC50 | 2 µM |
| CC/C(=C(\c1ccccc1)c1ccc(OCCNC)cc1)c1ccccc1 | cultured mouse DRG neurons | sodium current, whole-cell voltage clamp |  | 5 min, -10 mV trains at 0.2 Hz | IC50 | 1.7 µM |
| CSCC[C@H](NC(=O)[C@H](CCC(N)=O)NC(=O)[C@H](CCC(N)=O)NC(=O)[C@H](CO)NC(=O)[C@H](CCCNC(=N)N)NC(=O)[C@H](CCC(=O)O)NC(=O)CNC(=O)[C@H](CC(C)C)NC(=O)CNC(=O)[C@H](CC(N)=O)NC(=O)[C@@H](NC(=O)[C@@H](N)CCC(N)=O)C(C)C)C(=O)O | SiHa | CCK-8 |  | 36 h | IC50 | 208 ± 13.5 µg/mL |
| Cc1ccc(NC(=O)Cn2cnc3ccccc3c2=O)c(O)c1 | HEK293 | cell growth or viability, crystal violet |  | 48 h | IC50 | > 100 µM |
| ClC1=C(Cl)C2(Cl)C3CC4OC4CC3C1(Cl)C2(Cl)Cl (centres unmarked) | PC6-3 | cell viability, MTT |  | 4 h | IC50 | 22 µM |
| CCCCCCCCCCCCc1ccc(S(=O)(=O)Nc2nncs2)cc1 | BxPC-3 | Ser473 AKT phosphorylation, inhibitor, Western blot, item: phospho-Ser473 AKT |  | 4 h | IC50 | 8.6 ± 0.8 µM |

| Molecule | tested on | assay | system | conditions | quantity | result |
| --- | --- | --- | --- | --- | --- | --- |
| C[C@H]1C[C@H]2[C@@H]3CCC4=CC(=O)C=C[C@]4(C)[C@@]3(Cl)[C@@H](O)C[C@]2(C)[C@@]1(O)C(=O)CO | H2030 (EGFR wild type) | cell viability, Alamar Blue |  | 120 h | IC50 | > 10 µM |
| C[C@@H]1CC[C@H]2[C@@H](C)C(=O)O[C@@H]3O[C@@]4(C)CC[C@@H]1[C@]32OO4 | MCF7/ADR multidrug-resistant | cell growth, MTT |  | 24 h | IC50 | > 100 µM |
| CC[C@@]1(O)C(=O)OCc2c1cc1n(c2=O)Cc2cc3ccccc3nc2-1 | L02 | cell growth or viability, MTT |  | 48 h | IC50 | 0.01 µM |
| N.N.[Cl][Pt][Cl] | CCD-18Co | cell growth or viability, MTT |  | 72 h | IC50 | 31.3 µM |
| N.N.O=C([O-])C1(C(=O)[O-])CCC1.[Pt+2] | CH1 | cell viability, MTT |  | 96 h | IC50 | 0.81 ± 0.17 µM |
| C#CC[C@H](N)C(=O)N[C@@H](C)C(=O)N1CCC[C@H]1C(=O)N1CCC[C@H]1C(=O)NCC(=O)N[C@@H](CCCN)C(=O)N[C@@H](CCCNC(=N)N)C(=O)N[C@@H](CC(C)C)C(=O)N[C@@H](CCCNC(=N)N)C(=O)N[C@@H](CO)C(=O)NCC(=O)N[C@@H](CCCNC(=N)N)C(=O)N[C@@H](CO)C(=O)N[C@H](C(=O)NCC(=O)N[C@@H](C)C(=O)N1CCC[C@H]1C(=O)N[C@@H](CC(C)C)C(=O)N[C@H](C(=O)N[C@@H](CCCNC(=N)N)C(=O)NCC(=O)N[C@@H](CO)C(N)=O)[C@@H](C)O)[C@@H](C)O | A2780 | cell growth or viability, MTT |  |  | IC50 | > 200 µM |
| Nc1ccn([C@@H]2CS[C@H](CO)O2)c(=O)n1 | human T-lymphocyte | cell growth or viability |  | 72 h | IC50 | > 250 µM |
| Cn1nnc2c(C(N)=O)ncn2c1=O | U87 MGMT-negative | Alamar Blue |  | 7 d | IC50 | 50 µM |
| COc1ccc(NC(=O)Cn2cnc3ccccc3c2=O)c(N)c1 | HepG2.2.15 | cell growth or viability, crystal violet |  | 48 h | IC50 | > 100 µM |
| CC[C@H](C)[C@H](NC(=O)[C@H]([C@@H](C)CC)N(C)C(C)=O)C(=O)N[C@H](C(=O)N[C@@H](CC(C)C)C(=O)[C@@]1(C)CO1)[C@@H](C)O | LAPC4 | AR transcriptional activity, antagonist, PSA promoter luciferase |  | 24 h | IC50 | 10 µM |
| O=C1C=C2C=C[C@@H]3C[C@@]2(O1)[C@H]1CCCCN31 | 293FT | cell viability |  |  | IC50 | > 42 µM |
| COc1ccc(NC(=O)Cn2cnc3ccccc3c2=O)c([N+](=O)[O-])c1 | HepG2.2.15 | cell growth or viability, crystal violet |  | 48 h | IC50 | > 100 µM |
| O=S(=O)([O-])[O-].[Cu+2] | Caco-2 monolayers | viability, MTT |  | 48 h, repeated daily dosing | IC50 | 670 µM |
| CN[C@@](C)(C[18F])C(=O)O | A549 tumour model |  | host not given, liver | 15 min, tumour-bearing | tracer uptake | 6.9 %ID/g |
| lead | U-251 empty vector transfected | cell growth |  |  | IC50 | 4.8 µM |
| N.N.[Cl][Pt][Cl] | PC-3 | cell growth or viability, MTT |  | 48 h | IC50 | 23.5 µM |
| N.N.[Cl][Pt][Cl] | H838 | cell viability, MTT |  | 4 h, added: cimetidine 3 mmol/L | IC50 | 81.3 ± 11.5 µM |

Excerpt of the above:
| Molecule | tested on | assay | system | conditions | quantity | result |
| --- | --- | --- | --- | --- | --- | --- |
| lead | U-251 empty vector transfected | cell growth |  |  | IC50 | 4.8 µM |
| Cn1nnc2c(C(N)=O)ncn2c1=O | U87 MGMT-negative | Alamar Blue |  | 7 d | IC50 | 50 µM |
| CC/C(=C(\c1ccccc1)c1ccc(OCCNC)cc1)c1ccccc1 | cultured mouse DRG neurons | sodium current, whole-cell voltage clamp |  | 5 min, -10 mV trains at 0.2 Hz | IC50 | 1.7 µM |
| CCCCCCCCCCCCc1ccc(S(=O)(=O)Nc2nncs2)cc1 | BxPC-3 | Ser473 AKT phosphorylation, inhibitor, Western blot, item: phospho-Ser473 AKT |  | 4 h | IC50 | 8.6 ± 0.8 µM |
